Assay results from different studies.
Parts stem from different laboratories: compare values within a part only.

Study 1
Target: PABPC1L2, full length, GST fusion (mouse, UniProt A0ABA7IW68)
Method: RNAcompete
Form: RNA
Medium: in vitro
Tested at: 20 nM
Notes: 7-mer, probes averaged, single round
Reference: mean of 7-mers
Reading: higher = stronger binding
Construct (chain): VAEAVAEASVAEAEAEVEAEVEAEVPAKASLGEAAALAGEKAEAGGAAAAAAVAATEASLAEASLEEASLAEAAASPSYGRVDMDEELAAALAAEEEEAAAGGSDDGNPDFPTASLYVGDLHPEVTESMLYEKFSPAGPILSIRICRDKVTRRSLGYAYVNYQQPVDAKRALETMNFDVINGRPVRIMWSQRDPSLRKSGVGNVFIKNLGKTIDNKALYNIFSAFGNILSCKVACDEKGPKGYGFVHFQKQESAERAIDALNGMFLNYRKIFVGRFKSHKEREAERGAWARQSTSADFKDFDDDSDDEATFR
Sequence	7-mer Z-score
CCGAUGU	-0.293
CGCUCUA	-0.3
CCUUCGC	-0.423
AAGAAAG	1.39
GACAUAA	0.57
UUUGAGU	-0.3
UCUCGCG	-0.454
CCCCUCU	-0.374
AUCGGUU	-0.318
ACGGCGG	0.343
GCAGGGG	0.167
UUUAGAC	-0.0337
CCAGUGA	-0.115
CCAAGCC	-0.414
CAUGCGU	-0.298
AGUGUAG	0.206
AAGUCAA	0.0895
UCACGCA	-0.0935
CAAGCGA	0.16
ACCAGGC	0.0261
GGCAAUA	0.175
CAGACCA	0.155
GCGCCAU	-0.215
AUAGGUU	-0.0482
ACAACCG	0.00436

Study 2
Target: Interferon regulatory factor 7, full length, phosphomimetic (IRF7, Homo sapiens, UniProt Q92985, residues 1-503, S101K/S471D/S472D/S475D/S476D/S477D/S483D/S484D/S487D)
Method: protein-binding microarray
Form: double-stranded DNA, one strand shown
Medium: in vitro
Tested at: 250 nM
Notes: 60-bp whole probe
With: salmon DNA 0.4 mg/ml
Reference: random background probes
Reading: higher = stronger binding
All sequences stand within: GCCTAGCAC … GTCTTGATTCGCTTGACGCTGCTG
Target sequence (chain): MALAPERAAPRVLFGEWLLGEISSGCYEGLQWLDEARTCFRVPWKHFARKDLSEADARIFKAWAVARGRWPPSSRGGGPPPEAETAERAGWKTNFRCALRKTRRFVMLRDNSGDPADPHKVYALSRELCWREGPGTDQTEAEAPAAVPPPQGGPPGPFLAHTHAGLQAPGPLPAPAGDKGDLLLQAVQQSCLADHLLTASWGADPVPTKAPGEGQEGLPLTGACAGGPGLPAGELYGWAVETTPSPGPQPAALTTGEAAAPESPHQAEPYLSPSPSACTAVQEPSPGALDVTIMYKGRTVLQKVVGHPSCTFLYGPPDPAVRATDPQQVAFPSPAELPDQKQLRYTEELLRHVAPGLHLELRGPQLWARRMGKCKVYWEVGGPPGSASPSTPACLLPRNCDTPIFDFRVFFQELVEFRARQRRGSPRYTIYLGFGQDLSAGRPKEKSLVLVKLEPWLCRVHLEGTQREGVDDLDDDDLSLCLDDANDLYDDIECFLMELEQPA
Sequence	log fluorescence [z-score]
TTAGGAATGGACTATCGGTTAGTGCTA	-0.0805
GACGGTATCTGACTGGGGACGTGCTAG	-0.422
TTCGGTCTCCTTATCCTTTAGTGCTAG	0.746
TTAGATTCCAGTTCCGATTAGTGCTAG	3.64
TTAGGTATCCTACTGCTGTAGTGCTAG	0.051
TTAGAACTGAGTCGCGATTAGTGCTAG	0.465
TTAGGACTGGGGACTGGGTTGGTGCTA	-0.289
TTATGTATCCTACTGCTTTAGTGCTAG	0.158
TCAGTTTCCATTTTCAGACTGTGCTAG	8.3
TCAATTCTCTTCTTGCAACTGTGCTAG	1.28
GACGGACTGCTTCGCCTGACGTGCTAG	-0.427
GACGGACTGGGACTGGGGGCGTGCTAG	0.336
TTAGATCTCAGTATCGATAAGTGCTAG	0.44
TAAGGTTTCGGGTATCGGTTAGTGCTA	8.18
CTTCCTTTACTTTCTTTTTTGTGCTAG	2.21
GGAGAAAAATCATGAAAATAGTGCTAG	-0.425

Study 3
Target: Prothrombin, mature alpha-thrombin (F2, Homo sapiens, UniProt P00734)
Method: aptamer microarray, sandwich
Form: DNA with 2'F-ANA
Medium: in vitro
Tested at: 200 nM
Notes: whole 15-mer aptamer, many near background
With: Cy3 exosite-II aptamer, 400 nM
Reading: higher = stronger binding
Sequence: GGTTGGTGTGGTTGG
Modification	mean fluorescence intensity [a.u.]
2'F-ANA at 3 4 10 11 12 13 14 15	181
2'F-ANA at 1 5 7 10 11 15	48.6
2'F-ANA at 1 2 4 5 7 8 11 14 15	68
2'F-ANA at 1 4 6 7 9 10 11 13 15	53.4
2'F-ANA at 1 2 4 5 7 9 10 11 12 13 15	47.6
2'F-ANA at 1 4 5 7 9 10 12 13 14 15	46.5
2'F-ANA at 3 4 7 10 11 12	387
2'F-ANA at 1 3 5 6 8 10 11 13 15	49.3
2'F-ANA at 3 6 7 8 9 11 13 14	460
2'F-ANA at 1 2 3 4 5 6 7 8 9 11 12 15	91.5
2'F-ANA at 1 4 5 7 9 11 13	48.5
2'F-ANA at 1 3 4 6 7 8 9 10 14 15	52.5
2'F-ANA at 5 11 12	128
2'F-ANA at 1 3 4 6 10	109
2'F-ANA at 1 4 5 10 11 13 14 15	54.1
2'F-ANA at 2 3 4 7 8 10 11 12 13 14 15	159
2'F-ANA at 1 2 4 7 9 11 12 13	189
2'F-ANA at 1 7 8 10 11 15	55
2'F-ANA at 4 5 7 9 10 11 12 13 15	48.8
2'F-ANA at 2 3 6 7 8 9 10 11 13 14	235
2'F-ANA at 1 2 4 5 8 13 15	57.3

Study 4
Target: Histone acetyltransferase KAT6A, both winged helices, GST fusion (KAT6A, Homo sapiens, UniProt Q92794, residues 1-181)
Method: protein binding microarray
Form: double-stranded DNA, one strand shown
Medium: in vitro
Tested at: not given
Notes: 8-mer, flanks averaged, mean of 2 arrays, mostly near background
Reference: not given
Reading: higher = stronger binding
Construct (chain): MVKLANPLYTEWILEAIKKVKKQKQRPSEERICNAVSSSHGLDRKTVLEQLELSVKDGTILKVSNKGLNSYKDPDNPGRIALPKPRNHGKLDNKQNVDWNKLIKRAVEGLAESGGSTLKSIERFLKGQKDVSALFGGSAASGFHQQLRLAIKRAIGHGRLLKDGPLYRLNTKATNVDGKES
Sequence	E-score
ACCCCAAT	-0.297
AACGTCAT	0.0815
AAAGTACC	-0.0837
ATAATAGG	-0.0512
CACCCCCA	-0.228
ACGTCGCG	0.265
ATGACAGA	-0.115
CGTGAAGC	0.146
AGGTGGAA	-0.158
ACCTCTGA	-0.134
ACCTGCTC	-0.109
AGCCATTG	-0.124
CCTTGATC	-0.153
AAGAAAGG	-0.132
CATCCGAC	0.135
ACTTTTTG	-0.141
AAAGCCTA	-0.168
TCAATTCA	-0.0719
GGGGAAGA	-0.121
GCACGTCA	-0.0302

Study 5
Target: RING finger protein unkempt homolog, zinc fingers 1-6, GST-SBP tag (UNK, Homo sapiens, UniProt Q9C0B0, residues 30-357)
Method: RNA Bind-n-Seq
Form: RNA
Medium: in vitro
Tested at: not given
Notes: RNA with constant flanks, human and mouse sites, ends assumed
Reference: input RNA pool
Reading: higher = stronger binding
All sequences stand within: GGGAGUUCUACAGUCCGACGAUC … CAACAGAGGAUUGAGCAUCA
Target sequence (chain): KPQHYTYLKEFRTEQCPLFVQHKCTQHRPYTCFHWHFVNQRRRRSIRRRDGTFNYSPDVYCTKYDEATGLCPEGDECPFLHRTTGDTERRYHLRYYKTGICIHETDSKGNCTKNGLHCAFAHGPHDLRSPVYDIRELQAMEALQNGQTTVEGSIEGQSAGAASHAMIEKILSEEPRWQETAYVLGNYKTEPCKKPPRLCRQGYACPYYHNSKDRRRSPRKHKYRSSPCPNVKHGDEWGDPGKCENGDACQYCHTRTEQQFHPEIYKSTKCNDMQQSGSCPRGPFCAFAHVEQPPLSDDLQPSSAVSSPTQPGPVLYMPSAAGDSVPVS
Sequence	bound/input enrichment [ratio]
UAAAUGAUAGACAAUUGAGGUAAGUUUUUUGAAAUUAUGUGACAUUUUACAUUAAAUUUUUUUUACAUUUUUUGGGCAGCAAUUUAAAUGUUAUGACUAUGUAAACUACUUCUCUUGUUA	0.719
UGUGCACGCACACUUAAGUGCAUGCAUGGAAGGUGCCUGGGCUGUCUUUGCUAUAUGUAAAUAGGGCCACUGGAUCUUUAUUUUUGAUUAAUUUGUUCUGAUUUUUUUUUUGGUUUGUUU	2.25
AUCCUUAUUAGUCAAAUAACGCUAUUCUUUUGUGGUUCUAGACCCUGGCUUCUAUCUCCCUGUGAUUUGUUUUAAUGCUGAAAUGACUUGGCUAUCCAAAGCUUCUAGUCUAGAGGUCUG	1.64
GUCCAGCGCCUGAAUGAACUUGAGGCAAUGACUAGAGUAAGAUUGGACUUCUUGGAUCAACUGGCAAAAUUUUGGGAACUUCAAGGAUCUACAUUGAAGAUCCCUGUGGUGGAGAGAAAA	0.224
CUACAGGAGGAACUGGACUGCCAAGGAGAUGAGGAGGAAGAGGAGGAGGACGGAAGCAGUUUCUGCAGUGGAGCCACUGAUUCUAGCACCCAAAGCCUGGCUCCCAGUGAAUCGGAUGAG	0.0636
GAGGCCUGGGGGACCCCUGGCUCUGGGCCGGGCCUGGGGCUCCGAAAUUCCAAGGCCCAGACUUGCGGGGGGUGGGGGGGUAUCCAGAAUUGGUUGUAAAUACUUUGCAUAUUGUCUGAU	0.325
GUGGAGCCGGCGGACGCCUCCGGUACCGAGAAAGCUUUCGAGCCAGCAACCGGCCGAGUGAUAGCUACUUUCACAUGUUCAGGAGAAAAGGAAGUAAAUUUGGCUGUUCAAAAUGCAAAG	0.152
CAAGGAAGAGGAUGCUCCUCAUAGAGAAGAUUACUUUGAGCCCAUUUCUCCUGAUCGGAAUUCUGUUCCCCAGGAAGGGCAAUAUUCUGAUGAAGGAGAAGUAGAAGAGGAACAACAAGA	0.506
AAGAUGCUUCAAAGUAUUAUUAAAAACAUAUGGAUCCCCAUGAAGCCCUACUACACCAAAGUUUACCAGGAGAUUUGGAUAGGAAUGGGGCUGAUGGGCUUCAUCGUUUAUAAAAUCCGG	0.241
AAUCAGUAGAAUUACAUAAUACUAAAGUUGCAGUUGAAAGAAUAUCCAAGUAUGUGUUGGUAGUUACUAAAAGAAUUAUAGCUGUUAUUGCCUUGUAUUUAUAGCCCUUGUUUCAGGUUU	5.16
AUGACAGAAUCCAGCCAUUUCUUCCACCUGUGAUGCCAGUUGCUUGCUCAGGCCUCUUUCUCCUGUGGCUUUCUAGUCUUCUAUUCCCAGCUGUGAAGACCACACACAGAUGAACAAAUG	0.987

Repeated from above (study 3):
Modification	mean fluorescence intensity [a.u.]
2'F-ANA at 1 4 5 10 11 13 14 15	54.1
2'F-ANA at 1 3 4 6 10	109
2'F-ANA at 1 3 5 6 8 10 11 13 15	49.3
2'F-ANA at 1 2 3 4 5 6 7 8 9 11 12 15	91.5
2'F-ANA at 1 2 4 7 9 11 12 13	189
2'F-ANA at 1 4 5 7 9 11 13	48.5
2'F-ANA at 4 5 7 9 10 11 12 13 15	48.8
